Assay results of several laboratories.
Parts stem from different laboratories: compare values within a part only. Changes are numbered by the printed parent chain.

Set 1
Target: CCNA2, cyclin fold, Cln2 fusion (human)
Technique: yeast growth competition, sequencing
Medium: yeast
Setting: strong parent motif
Relative to: not given
Direction: higher = stronger binding
Parent: PKMYT1 docking peptide (human); SFEPRNLLSLFED
`S1P` — result for “normalised enrichment score”: 3.28.
For `E3P`, “normalised enrichment score” read 2.
`R5K`: “normalised enrichment score” 2.52.
For `L10S`, “normalised enrichment score” read 1.74.
`R5T` — result for “normalised enrichment score”: 0.84.
Under “normalised enrichment score”, `S1F` is recorded as 3.72.
Under “normalised enrichment score”, `F2S` is recorded as -0.266.
For `D13H`, “normalised enrichment score” read 1.81.
`E12R` — result for “normalised enrichment score”: 2.14.
`D13C` — result for “normalised enrichment score”: 2.54.

Set 2
Target: Fragile X messenger ribonucleoprotein 1, C-terminal low-complexity region (Fmr1, Mus musculus, UniProt P35922)
Technique: RNA Bind-n-Seq
Molecule type: RNA
Medium: in vitro
Tested at: 200 nM
Setting: whole 134-nt RNA, ends assumed
With: 150 mM KCl
Relative to: input library
Direction: higher = stronger binding
Constant ends, left off below: GGGAGUUCUACAGUCCGACGAUC … UGGAAUUCUCGGGUGUCAAGG
With `UAACUUUAGAGGAGGAUCUGAUGGAUAUGGCAGUGGACGUCGAUUUGGGGAUGGCUAUAAUGGGUAUGGAGGAGGACCUGGAGGUGGCAA` the log2 enrichment was 0.191.
With `CUCAAGUCCUGUGCUACACAUCGUAUGUACCGAAUCGGCCCGGCCCGGGCCCGGAAAGUAUUAUGUUACGCCGUUCGGAUCUGCACUUCC` the log2 enrichment was -0.583.
For `GUCCUGUGCUACACAUCGUAUGUACCGAAUCAAAUUUAAACCCCCAAACCCCCCCAAAAAAGUAUUAUGUUACGCCGUUCGGAUCUGCAC`, the log2 enrichment was -0.213.
`CUGUGCUACACAUCGUAUGUACCGAAUCGGAAAAAAAGGGGAAAAAAAGGGGAAAAAAAGGGAAAGUAUUAUGUUACGCCGUUCGGAUCU` has a log2 enrichment of -0.374.
`UAACUUUAGAGGAGGAUCUGAUGGAUAUGGCAGUGGACGUGGAUUUGGGGAUGGCUAUAAUGGGUAUGGAGGAGGACCUGGAGGUGACAA` gave a log2 enrichment of 0.137.
The log2 enrichment of `CUCAAGUCCUGUGCUACACAUCGUAUGUACCGAAUCGGGUGGGGUGGGGUGGGAAAGUAUUAUGUUACGCCGUUCGGAUCUGCACUUCCA` is reported as 1.03.
`GAAACUACCCGUGUGUAAAAAGAAGAUUGGCUUAAAAUGGCUACUGUGAUGGGAACAGUGUCUUAGGGAGAUGCAGCUUGGACUUGAGGU` has a log2 enrichment of 0.22.
`CAAGUCCUGUGCUACACAUCGUAUGUACCGAAUCGGUUUUUGGAAAGGUUUUUGGAAAGUAUUAUGUUACGCCGUUCGGAUCUGCACUUC` has a log2 enrichment of -0.811.
`CUGUGCUACACAUCGUAUGUACCGAAUCGGGCCCCCCCGGGCCCCCCCGGGGCCCCCCCGGAAAGUAUUAUGUUACGCCGUUCGGAUCUG` has a log2 enrichment of -1.17.
The log2 enrichment of `ACGCUCCAUGAAAGCUAGGAGGGAGUGAAAUAUCAGUGAUCAUCGCAAGGAAGGAGGCAGACAAGAGUAAGGCACACCUGACUCUUAGGA` is reported as -0.481.
The log2 enrichment of `UCAAGUCCUGUGCUACACAUCGUAUGUACCGAAUCGGGUUUGGGUGGGUUUGGGAAAGUAUUAUGUUACGCCGUUCGGAUCUGCACUUCC` is reported as 1.42.
With `AGUCCUGUGCUACACAUCGUAUGUACCGAAUCGGUUUUUGGUUUUUGGUUUUUGGGGAAAGUAUUAUGUUACGCCGUUCGGAUCUGCACU` the log2 enrichment was -0.581.
The log2 enrichment of `CUGUGCUACACAUCGUAUGUACCGAAUCGGGGUUUUUUUGGGGAAAAAAAGGGGAAAGGGGAAAGUAUUAUGUUACGCCGUUCGGAUCUG` is reported as -0.384.

Set 3
Target: RING finger protein unkempt homolog, zinc fingers 1-6, GST-SBP tag (UNK, Homo sapiens, UniProt Q9C0B0, residues 30-357)
UniProt Q9C0B0, sequence (30-357, looked up): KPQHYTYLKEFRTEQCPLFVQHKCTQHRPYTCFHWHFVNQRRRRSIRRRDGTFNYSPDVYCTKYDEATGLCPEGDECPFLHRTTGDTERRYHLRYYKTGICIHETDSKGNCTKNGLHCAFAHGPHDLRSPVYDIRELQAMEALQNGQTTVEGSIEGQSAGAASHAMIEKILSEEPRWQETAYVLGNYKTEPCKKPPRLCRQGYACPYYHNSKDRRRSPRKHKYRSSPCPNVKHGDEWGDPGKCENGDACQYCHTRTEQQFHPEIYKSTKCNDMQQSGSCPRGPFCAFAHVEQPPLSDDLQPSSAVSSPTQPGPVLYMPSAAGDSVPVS
Technique: RNA Bind-n-Seq
Molecule type: RNA
Medium: in vitro
Tested at: not given
Setting: RNA with constant flanks, human and mouse sites, ends assumed
Relative to: input RNA pool
Direction: higher = stronger binding
Constant ends, left off below: GGGAGUUCUACAGUCCGACGAUC … CAACAGAGGAUUGAGCAUCA
For `GCACAGCAGUUGUACAGCAGGGGUCCUCCUGCCCCUCAUAUUGUGGGAUCCACUCUAGGAUCUUUCCAAGGUGCUGCAUCGUCAGCAUCCCAUUUGCAUACGAGUGCCUCCCAACCAUAC`, the bound/input enrichment was 0.171 ratio.
The bound/input enrichment of `AUCAAUGAACAUGACUAUGCAAAAGCAGCCUUUUGUUUAGAGGAACUAAUGAUGACUAAUCCACACAACCACUUAUACUGUCAGCAGUAUGCUGAAGUUAAGUAUACCCAAGGUGGACUU` is reported as 0.181 ratio.
The bound/input enrichment of `UAAUUAUUCACCUUUAGCUUUUGUCUCUUGUGCAUGCUAUCACAGUUUUGCUUGUAUUUUUAGCAUAUGAACAUUUAUAAAGUCACUUUUUUUGUUACUGCAAUUUUGUCUGAUUUAUCC` is reported as 8.42 ratio.
The bound/input enrichment of `CUGAAACCAGCCAAUGUUUUCCUGGAUGGCAAGCAAAACGUCAAGCUUGGAGACUUUGGGCUAGCUAGAAUAUUAAACCAUGACACGAGUUUUGCAAAAACAUUUGUUGGCACACCUUAU` is reported as 2.56 ratio.
`GGACCGUGCCCUAGAAUUUGCCCCUGCCUGCCAUCGCUUCAAAAUCCUCAAGGCAGAAUGUUUAGCAAUGCUGGGUCGUUAUCCAGAAGCACAGUCUGUGGCUAGUGACAUUCUACGAAU` has a bound/input enrichment of 0.292 ratio.
The bound/input enrichment of `GAUGACUGUCUUUUGAAGGUUUGGUAUAAUGUAGAAAACUGGCGGACAGCUGUUACUUCUCCAGAUGGAAGUUCAGAAAAACAAUCCCAAGGAGAAAUUGACUUUUCUUUUGUGUAUCUG` is reported as 0.18 ratio.
`AGCCAUUGGGGAGGCAGAUGCGGGUGUGGAGGUGUGGGCUGAAGGUAGUGACUGUUUGAUUUUAAAAAGUGUGACUGUCAGUUGUAUCUGUUGCUUUUCUCAAUGAUUCAGGGAUACAAA` has a bound/input enrichment of 1.53 ratio.

Single results of other studies
`PhoQ, residues 284 288 289 292 302 303 NLMGRA` has a fold induction of 11.2 (PhoP, residues 12 14 15 18 19 NMSFL (Escherichia coli, UniProt P23836); Sort-seq, item: YFP reporter; E. coli; PhoQ-PhoP variant library, with: 10 µM Mg2+; relative to: high Mg2+ state, higher = stronger signaling).

Repeated from above (set 2):
`CUGUGCUACACAUCGUAUGUACCGAAUCGGAAAAAAAGGGGAAAAAAAGGGGAAAAAAAGGGAAAGUAUUAUGUUACGCCGUUCGGAUCU` has a log2 enrichment of -0.374.
The log2 enrichment of `ACGCUCCAUGAAAGCUAGGAGGGAGUGAAAUAUCAGUGAUCAUCGCAAGGAAGGAGGCAGACAAGAGUAAGGCACACCUGACUCUUAGGA` is reported as -0.481.
